Published values gathered from unrelated publications.
Lines come from different studies, so protocols differ. ± marks the error that the study gave.
CDK2 with cyclin A1: Cyclin-dependent kinase 2, with cyclin A1 (CDK2, Homo sapiens, UniProt P24941)
CDK2: Cyclin-dependent kinase 2 (CDK2, Homo sapiens, UniProt P24941)
CDK2 with cyclin A2: Cyclin-dependent kinase 2, with cyclin A2 (CDK2, Homo sapiens, UniProt P24941)

| SMILES | target | test | test system | conditions | scale | measurement | result |
| --- | --- | --- | --- | --- | --- | --- | --- |
| COc1ccc(F)cc1C(=O)NCc1ccc(-c2nn([C@@H](C)C(F)(F)F)c(N)c2C(N)=O)cc1 | CDK2 with cyclin A1 | kinase activity, inhibitor, HotSpot radiometric |  | 100 nM, together with: ATP 10 µM |  | remaining activity | 79.9 ± 2.1% |
| C=CC(=O)N1CCC(C(=O)NCC(=O)N2CCN(c3nc(-c4cnc(N)nc4C(F)F)nc(N4CCOCC4)n3)CC2)CC1 | CDK2 | KINOMEscan |  | 1 µM |  | remaining binding | 100% |
| Cc1n[nH]c2ccc3nc(-c4ccc(C(=O)NCCN(C)C)cc4F)c4c(c3c12)CCCC4 | CDK2 | KINOMEscan |  | concentration not given |  | remaining binding | 100% |
| CC(=O)Nc1c(N)nc(SCC(=O)N/N=C/c2ccc([N+](=O)[O-])cc2)[nH]c1=O | CDK2 with cyclin A2 | kinase activity |  | 1 nM |  | remaining activity | 96% |
| C1=C/COCc2cc(ccc2OCCN2CCCC2)Nc2nccc(n2)-c2cccc(c2)COC/1 | CDK2 |  |  | concentration not given |  | percent of control | 100% |
| CC(=O)N=S(=O)(O)c1ccc(N/C=C2\C(=O)Nc3ccc4ncsc4c32)cc1 | Cyclin-dependent kinase 2, with cyclin A (CDK2, Homo sapiens, UniProt P24941) | isothermal titration calorimetry |  | concentration not given, 298 K, together with: cyclin A |  | binding enthalpy | -7.23 kcal/mol |
| CC[C@@H]1[C@H](F)C(=O)N[C@@H]1COc1nccc2cc(C(N)=O)c(OC)cc12 | CDK2 | ATP-site probe binding, ActivX profiling | THP-1 cell lysate | 0.2 mM, Lys1 site |  | inhibition | 12.3% |
| CNC(=O)c1cc(Oc2ccc(NC(=O)Nc3ccc(Cl)c(C(F)(F)F)c3)cc2)ccn1 | CDK2 with cyclin A2 | kinase activity, inhibitor, ADP-Glo kinase |  | 20 nM |  | remaining activity | 56.9% |
| CCN(CC)c1ccc(C2=NNC(=O)CC2C)cc1[N+](=O)[O-] (stereo not drawn) | Cyclin-dependent kinase 2, with cyclin E (CDK2, Homo sapiens, UniProt P24941) | enzyme activity, inhibitor |  | 10 µM | relative to: vehicle | remaining activity | 121% |
| CC(=O)Nc1c(N)nc(SCC(=O)NN)[nH]c1=O | CDK2 with cyclin A2 | kinase activity |  | 0.2 nM |  | remaining activity | 96% |
| C=CC(=O)N1CCC[C@@H](n2nc(-c3ccc(Oc4ccccc4)cc3)c3c(N)ncnc32)C1 | CDK2 with cyclin A1 | kinase activity, inhibitor, HotSpot radiometric |  | 100 nM, together with: ATP 10 µM |  | remaining activity | 86.4 ± 1.1% |
| CC(C)=CCc1c(O)c(CC=C(C)C)c2oc3c(O)cccc3c(=O)c2c1O | Cyclin-dependent kinase 2, with cyclin E1 (CDK2, Homo sapiens, UniProt P24941) | kinase activity, inhibitor |  | concentration not given |  | inhibition | inactive |

Excerpt of the above:
| SMILES | target | test | test system | conditions | scale | measurement | result |
| --- | --- | --- | --- | --- | --- | --- | --- |
| CC(=O)Nc1c(N)nc(SCC(=O)N/N=C/c2ccc([N+](=O)[O-])cc2)[nH]c1=O | CDK2 with cyclin A2 | kinase activity |  | 1 nM |  | remaining activity | 96% |
